Results pooled from the literature.
Every numbered part comes from another study and shows a few of its results, in no order. Substitutions count along the parent as printed.

Set 1
Target: RING finger protein unkempt homolog, zinc fingers 1-6, GST-SBP tag (UNK, Homo sapiens, UniProt Q9C0B0, residues 30-357)
Method: RNA Bind-n-Seq
Molecule type: RNA
Medium: in vitro
Tested at: not given
Setting: RNA with constant flanks, human and mouse sites, ends assumed
Reference: input RNA pool
Reading: higher = stronger binding
Shared flanks, not repeated: GGGAGUUCUACAGUCCGACGAUC … CAACAGAGGAUUGAGCAUCA
Target sequence (chain): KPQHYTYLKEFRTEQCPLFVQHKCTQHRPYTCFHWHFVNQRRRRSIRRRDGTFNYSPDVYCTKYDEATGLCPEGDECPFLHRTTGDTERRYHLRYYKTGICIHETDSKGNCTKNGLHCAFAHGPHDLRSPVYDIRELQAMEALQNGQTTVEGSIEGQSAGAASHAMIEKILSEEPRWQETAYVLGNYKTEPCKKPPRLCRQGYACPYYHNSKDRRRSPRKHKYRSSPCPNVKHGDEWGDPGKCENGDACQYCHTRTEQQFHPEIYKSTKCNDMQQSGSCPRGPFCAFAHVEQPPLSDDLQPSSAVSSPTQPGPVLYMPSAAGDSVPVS
Sequence | bound/input enrichment [ratio]
GAGUACAUUGUCUACGACAUUGCUCAGGUGAAUCUCAAAUACCUGCUGAAACUCAAGUUCAAUUUUAAGACAUCCCUGUGGUAAAGUGCGAGGGGUGGGCUGUGCCCAGCACCCAGGGCC | 0.212
CACCAGCCCAGUCCGGAUCAUUUCUGGCCCCGCUUCCCGGACGCUCUGCGCCCUUUCUUUCCUUGGGAUCAAUUGGAAAACGAGGAUUCCAGCGUGCACAUUUCCCCCCGGCAGAAGCGA | 0.144
GACAAAUGGUGAUAUAUUUCCUUAAAAAAGCUGUUUCUCAACUUUAAUUUUCUUUCAAAACUGAGAAUAUACCCAGAUACUACCCUUAGUUUCACUCACAUGUAUGCUGCAGAACAAGUG | 0.266
UUGGCCUCCAACCCCAUCAUGGAGUCAAUUGGAAAUGCCAAAACAACCAGGAAUGAUAAUAGCAGCCGGUUUGGAAAAUAUAUUGAAAUUGGUUUUGACAAGAGGUACAGAAUCAUCGGU | 0.419
CAGAAUGGAGCUAUGGACGUUAAUUUGACCGUCUACUCCAAUCCCCGCCAAGAGACUGGCAUAGCUGGACAUCCAACAUACCAAUUUUCUGCUAAUACAGGUCCUGCACAUUACAUGACU | 0.253
UUAAGUGUUCUCCGUUUGCUCCUUGUGACCAUGGGACUCCUCUUUGUUUUGCUCCUCCUCCUGAUCAUCCUUACUGAGUCUGACCUUGACGUUGCUUUUUUCCGAGAUAUCCGCCAGACC | 0.224
AAUAAGAGAAAAGAUAACAAGAAAACAGAUACCGAAGAAGAAGUAAAAAUACCAGUAGUGUGUGCUUUAACUCAAGAAGAAUCUUCAACCCCAUUAUCAAAUGAAGAGGAGCAUUUAGAC | 2.11
AAGACCAUCACCCUGGAAGUGGAGCCCAGUGACACCAUCGAAAAUGUGAAGGCCAAGAUCCAGGAUAAAGAAGGCAUCCCUCCCGACCAGCAGAGGCUCAUCUUUGCAGGCAAGCAGCUG | 0.045
AGACGGUAAACAUCUGGAGUCAUUUGCUGGGUUUCUUUCUCUUCUUCACCCUGGGGAUAUAUGACAUGACAUCCGUGCUGCCUUCCGCCAGCGCAUCCAGAGAAGACUUUGUGAUUUGCU | 0.273
AGGACCGUGCAGAACCCAGCUGCAUUGAAGACCAAUGGAGAGCAUGUAUUUUAACUUGGAUUUAGGCAGGAAGUGAUACAUGAUGGUGAAGAAAACGGCCCUGAAGAAUGGACCAUAUUC | 0.526
UGCAGGCUGUGCAGCUAUGUCACCCUGCGGGAGGAGUCUCUGCUCAGCCACAUAGAGAGGGACCACAUCACCGCACAGGUGCCCAAUGGCAGCGAGGCCUGUGUGGAGAACGGCAAACCU | 0.0571

Set 2
Target: ATF1, bZIP domain (human)
Method: DHFR protein complementation
Medium: yeast
Setting: single substitutions, most at no-binding floor
Reference: wild-type JUN-FOS pair
Reading: higher = stronger binding
Starting sequence: JUN, bZIP domain (human); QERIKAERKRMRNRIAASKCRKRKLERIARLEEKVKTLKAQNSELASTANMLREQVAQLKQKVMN; partner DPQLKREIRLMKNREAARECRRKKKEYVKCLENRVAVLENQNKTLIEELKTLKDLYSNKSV
Change | binding fitness [natural log]
A49K | -1.49
R53D | -1.57
L31C | -1.59
Q55T | -1.51
T48M | -1.36
E44M | -1.4
K39G | -1.51
L38A | -1.49
S47M | -1.48
A49H | -1.5
S47K | -1.35
L38T | -1.55
M51E | -1.51
N42L | -1.47

Set 3
Target: CCNB3, cyclin fold, Cln2 fusion (human)
Method: yeast growth competition, sequencing
Medium: yeast
Setting: weak parent motif
Reference: not given
Reading: higher = stronger binding
Starting sequence: RRM2 docking peptide (human); SKTARRIFQEPTE; partner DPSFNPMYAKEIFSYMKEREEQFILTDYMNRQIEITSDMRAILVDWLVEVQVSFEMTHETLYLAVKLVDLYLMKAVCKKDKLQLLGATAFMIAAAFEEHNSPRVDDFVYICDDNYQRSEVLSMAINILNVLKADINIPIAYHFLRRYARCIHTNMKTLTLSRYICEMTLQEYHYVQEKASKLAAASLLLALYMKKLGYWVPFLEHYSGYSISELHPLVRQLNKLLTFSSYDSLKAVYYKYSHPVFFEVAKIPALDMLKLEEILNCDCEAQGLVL
Change | normalised enrichment score
T12A | 0.0125
E10A | 0.155
S1A | 0.0914
K2A | 0.0879
R5A | 0.0313
P11A | -0.175

Set 4
Target: RNA binding protein fox-1 homolog 2, RRM domain, GST-SBP tag (RBFOX2, Homo sapiens, UniProt O43251-10, residues 100-194)
Method: RNA Bind-n-Seq
Molecule type: RNA
Medium: in vitro
Tested at: 365 nM
Setting: natural RNA segment, single round, ends assumed
Reference: no-protein control
Reading: higher = stronger binding
Shared flanks, not repeated: GGGAGUUCUACAGUCCGACGAUC … UGGAAUUCUCGGGUGCCAA
Target sequence (chain): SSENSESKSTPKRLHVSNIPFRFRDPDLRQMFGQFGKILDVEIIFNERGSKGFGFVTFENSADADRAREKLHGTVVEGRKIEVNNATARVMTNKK
Sequence | RBNS enrichment (R)
AAGCAAUUAUCAAAGCGGGCUGGGUCCCAUCAGAACGACCCACAUCUUUCUGUGGGUGUGAAUGUCAUUAGGUCUUGCGCUGACCCCUGAGCCCCCAUCACUGCCGCCUG | 1.79
GAUCUUUUGCUAAUGCAGUUAGCAGUAUGUUUUGCAUGUAUGAAUUAAUAAAUCCUUGAAUCAUACACUGGUUAUGCUUGUGUUUUUGGAAUUUGACAAGCUCUUGGCGU | 3.32
GUUGCCUGUUGUUCGGUUGUGUGACUAAUUGUGGAUUUUAAGCUGCUAUUAUUGUAUUUCAGUGGCAAUGGACACAUUAGCCUUUUACAAGAGGACUAGAGUUCAUCAAG | 1.68
GGCUCAGGCACCCUGGUUUUAAUCCCUUGAGGAUCUGGCAAUUGGCUUACGUAAAGAAAGGGUCACCAUUUGAGGUCCUGCCUUACCAAUUAUGUGCUGCCCAACAACUA | 0.328
UUGAUUUACAGCAAGUAGAUAAAUAUUUGACUUGCAUGAAGAGAAGCAAUUUUGGGGAAGGGUUUGAAUUGUUUUCUUUAAAGAUGUAAUGUCCCUUUCAGAGACAGCUG | 0.917
UAAUUGUUUACAAUAUUUGUACAUCUAUGCAAAAUACUUGAAUGGGCCAUGGUGCCUUUUUUCCUUGUUAGUAUUUAAUUAAAAAUGAAUUGUUUGUCAUUUGCAAUGUU | 0.652
UGGAGAGGAGGCUAAUUGUUGGUUCAGACUCCUCCGCUUGGGUAAAAGACUCCCCUUAUCACUCUCCUCACAGUUGCUCUGCAUCUUUAAAGAGUAUUAGCUUCUGCUUC | 0.281
GGAUAGGGACGGGUGCUUUCCUCUCUAGUUGUAUCUGAGCGGAAGGAACAUCUUUCUGUAGCUAAUAAAAACUAAAAGGGAAGAGGAAGCAGAAGGGAAGGAGUGUGGCG | 0.681
CUCCUGUCCAGCAGGUAGUGGGUGAAUGUGUGAAGGUCUUGCCUGAAUCCAUCAGGACUUGGGAAACAGAGAACCCUGUGGGGGCGGCUGUGGGGGAGGUCCCUGCCAGU | 0.84
CAUUCAGUCUCCUACCUUGCAUUCAGGAUGCACAGUUCUCUAAGUCCUGGCCAGCCCCAGCUCAUCACAUUGGGUCCACAGGCAUCCCAGCAUGGGUCCCUGCGCCUCCC | 0.506
UGGGUAUGUUUAAUCUGUUAUGUACUAGUGUUCUGUUUGUUAUUGUUUUGUUAAUUACACCAUAAUGCUAAUUUAAAGAGACUCCAAAUCUCAAUGAAGCCAGCUCACAG | 0.417
AUGCCAUGGUUUUGUUUUGGUUACAUUGAAAGAAAGUUAAUUUGGAAAAUUUGGGAGAAAUCUAAUCAUGCCUAUUAAGGAUGUAAGACAUUACAGCCUUAGAAGAAAGA | 1.01

Set 5
Target: ABI1, truncated, D143A, DHFR fusion (Arabidopsis thaliana, UniProt P49597)
Method: DHFR PCA, dose-response
Medium: yeast
Setting: Hill fit, mean, not affinity
Together with: (+)-ABA, dose series
Reading: lower = more sensitive
Starting sequence: PYL1, truncated, DHFR fusion (Arabidopsis thaliana, UniProt Q8VZS8); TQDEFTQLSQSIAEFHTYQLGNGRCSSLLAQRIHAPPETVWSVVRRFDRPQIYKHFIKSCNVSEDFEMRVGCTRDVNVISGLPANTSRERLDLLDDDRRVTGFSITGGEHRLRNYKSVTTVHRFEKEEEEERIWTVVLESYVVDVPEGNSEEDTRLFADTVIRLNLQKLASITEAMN
Change | ABA EC50 [µM]
S117G | 145
E129R | 3.58
S171G | 3.47
S59D | 2.41
Q19C | 4.08
L8E | 61.3
P37C | 9.82
L29K | 43.2
D95K | 134
I52V | 1.09
Q31M | 15.7
L28K | 39.8
P37A | 6.54
D75S | 1.73
T39Q | 2.6
E38C | 10.9
L93C | 4.33
I33V | 5.6
R46C | 7.31
D97I | 4.71
